Measured values gathered from unrelated publications.
Protocols differ between the studies behind these lines. Numbers after ± are the reported error.

O=c1[nH]c(=S)[nH]c2c1C(c1cc(/N=N/c3ccc(Br)cc3)ccc1O)c1c([nH]c(=S)[nH]c1=O)N2 — oedema inhibition (rat, carrageenan paw oedema; oral, 50 mg/kg, 5 h): 57%
N#Cc1ccc(-c2cc(=O)c3ccc4[nH]c(C(F)(F)F)nc4c3o2)cc1 — time in target quadrant (Morris water maze probe trial; 5xFAD mice; dose not given, 60 s; baseline: vehicle): increased
Cc1ccc(C(=O)Nc2ccc(CP(=O)(O)O)cc2CP(=O)(O)O)cc1NC(=O)c1cccc(NC(=O)Nc2cccc(C(=O)Nc3cc(C(=O)Nc4ccc(CP(=O)(O)O)cc4CP(=O)(O)O)ccc3C)c2)c1 — PT (human plasma; 141 µM): 13 ± 1.5 s
COc1ccc(C2CC(c3ccc(C)cc3)=Nc3ccccc3S2)cc1OC (stereo not shown) — blood glucose (rat, normal, overnight fasted; oral, 10 mg/kg, 30 min, oral glucose tolerance test, with: glucose 3 g/kg oral): 119 ± 4.57 mg/dL
CSc1nn(-c2ccccc2)c(NC(=O)/C(C#N)=C(/Nc2ccc(C)cc2)Nc2c(C)n(C)n(-c3ccccc3)c2=O)c1C#N — mRNA level (real-time PCR, refers to: COX-2; mouse, formalin test, paw tissue; dose not given, unit not given; baseline: control): 0.4 ± 0.04
CC[C@@]1(c2cccc(C(F)(F)F)c2)C2=C(Nc3n[nH]cc31)[C@H](F)C(C)(C)CC2=O (single isomer, unassigned) — tau phosphorylation at Thr231 (refers to: phospho-tau Thr231; rat, postnatal day 10, cortex; intraperitoneal, dose not given, 3 h after dose; baseline: vehicle): decreased
Oc1ccc2nc1CNCCNCCNC2 — log beta MHL (pH-potentiometric titration; 298 K, I 0.15 M NaCl, with: Zn2+): 23.8
COc1ccc2c(c1)c(CC(=O)OCC(=O)c1ccccc1)c(C)n2C(=O)c1ccc(Cl)cc1 — latency of nociceptive response (hot plate test; BALB/c mice; 50 mg/kg, 0 min): 9.06 ± 0.88 s
CC[C@H]1[C@@H](O)[C@@H]2[C@H](CC[C@]3(C)[C@@H]([C@H](C)CCOS(=O)(=O)[O-])CC[C@@H]23)[C@@]2(C)CC[C@@H](O)C[C@@H]12.[Na+] — liver weight (ob/ob NASH mouse model; oral, 10 mg/kg once daily, 8 weeks; baseline: body weight): 8 ± 0.3%
NCC(=O)N1CCC[C@H]1C(=O)NCC(=O)NCC(=O)O — ΔS‡ at 298.15 K (diketopiperazine formation, transition state theory; 1-propanol; 70, 80, 90 °C, 0.5% acetic acid): -70 ± 9 J/(mol·K)
COc1c2c(cc3oc(COC4OC(CO)C(O)C(O)C4O)cc(=O)c13)OC(C(C)(C)O)C2 (stereo not shown) — hot plate latency (analgesia; mouse; oral, 2 mg/kg, 1.5 h): 12.2 ± 2.53 s
FC(F)(F)Oc1ccc(/N=c2\oc3ccccc3cc2-c2ccccc2)cc1 — oedema reduction (rat, formalin paw oedema; intraperitoneal, 20 mg/kg, 1 h): 38.7 ± 3.4%
COc1cc(CN2CCN(c3ccc(Cl)cc3)CC2)c2cc3[n+](cc2c1O)CCc1cc2c(cc1-3)OCO2 — FRAP absorbance (ferric reducing power, FRAP; 10 µg/mL, 30 min; higher is greater reducing power): 1.74 ± 0.62 a.u.
COc1cc2c(NC3CCN(C(C)C)CC3)cc(N3CCOCC3)nc2cc1OCCCN1CCCC1 — time in open field centre (5xFAD mice; intraperitoneal, 1 mg/kg every 3.5 days, 6 weeks): no effect
C[C@H](NC(=O)COC(=O)[C@H](C)NC(=O)CO)C(=O)O — depolymerization rate constant (water; pH 5, 65 °C): 0.843 h⁻¹
O=C(CCN1CCC(O)CC1)Nc1nccs1 — inhibition in vivo (paw oedema; mouse; intraperitoneal, 200 µmol/kg): 26.1%
CCCCCCCCCCCCCCCC(=O)OCC(CSC[C@H](N)C(=O)N[C@@H](CO)C(=O)N[C@@H](CCCCN)C(=O)N[C@@H](CCCCN)C(=O)N[C@@H](CCCCN)C(=O)N[C@@H](CCCCN)C(=O)NCCCCCC(=O)N[C@@H](CCCCN)C(=O)N[C@@H](CC(C)C)C(=O)N[C@H](C(=O)N[C@@H](Cc1ccccc1)C(=O)N[C@@H](Cc1ccccc1)C(=O)N[C@@H](Cc1ccc2ccccc2c1)C(=O)O)C(C)C)OC(=O)CCCCCCCCCCCCCCC (stereo partly shown) — OC+ TS- plaque area (APP/PS1 mouse; intracortical, dose not given, 2 d; baseline: vehicle): increased
N[C@@H](Cc1c[nH]c2ccccc12)C(=O)N1CCC[C@H]1C(=O)NCC(=O)NCC(=O)O — enthalpy of activation (diketopiperazine formation, transition state theory; 1-propanol; concentration not given, 70, 80, 90 °C, 0.5% acetic acid): 23.9 ± 1.67 kcal/mol
O=C(/C=C/c1ccc(O)c(O)c1)OCCCC[P+](c1ccccc1)(c1ccccc1)c1ccccc1 — cytochrome c release (rat liver mitochondria; 10 µM, 15 min): 60 pmol/mg protein
CN(C)c1cc2ccccc2c(N)n1 — liver hydroxyproline (ICR mouse, CCl4 liver fibrosis; intraperitoneal, 1 and 3 mg/kg daily): decreased
O=C(OCc1ccc(F)cc1)N(Cc1cccc(CN2CCCCC2)c1)[c-]1cccc1.[Fe+2].c1cc[cH-]c1 — hydroxyl radical generation (cell-free; concentration not given, with: H2O2; baseline: ferrocene): 6.8 fold
CCOC(=O)Cc1csc(NC(=O)CN2CCC(O)CC2)n1 — inhibition in vivo (paw oedema; mouse; intraperitoneal, 200 µmol/kg): 33.4%
O=C1NC(=O)C(C2CCOc3cc(Oc4ccc(C(F)(F)F)cc4Cl)ccc32)S1 (stereo not shown) — GLP-1 release (refers to: total GLP-1; colonic crypt cultures, wild type, mouse, ex vivo; 1 µM, 2 h, unit not given; baseline: vehicle): 2.8 ± 0.4
CNc1oc(-c2cccc3ccccc23)nc1C#N — oxidative stress markers (refers to: 4-HNE, Nrf2 nuclear, GPX1; CD1 mice; ip, 24 mg/kg daily, 2 weeks): no effect
CCCC[C@H](NC(=O)[C@H](C)NC(=O)[C@H](CO)NC(=O)[C@H](CC(C)C)NC(=O)[C@H](CCCCN)NC(=O)[C@]1(C)CCCC=CCCCCCC[C@@](C)(NC(=O)[C@H](CCC(=O)O)NC(=O)[C@H](CC(C)C)NC(=O)[C@H](CO)NC(=O)[C@H](CCC(N)=O)NC(=O)[C@@H](NC(=O)[C@H](CCCC)NC(=O)[C@H](CCC(=O)O)NC(=O)[C@H](CCCNC(=N)N)NC(=O)[C@H](CCC(N)=O)NC(=O)[C@H](CC(C)C)NC(=O)[C@H](CC(C)C)NC(=O)[C@H](CS)NC(=O)[C@H](CCC(N)=O)NC(=O)[C@H](C)NC(=O)[C@H](CCCNC(=N)N)NC(C)=O)C(C)C)C(=O)N[C@@H](CCC(N)=O)C(=O)N[C@@H](CC(C)C)C(=O)N[C@@H](C(C)C)C(=O)N[C@@H](CC(C)C)C(=O)N[C@@H](CCC(=O)O)C(=O)N[C@@H](CCCCN)C(=O)N1)C(=O)N[C@@H](CCC(N)=O)C(=O)N[C@@H](C)C(=O)N[C@@H](Cc1c[nH]cn1)C(N)=O — Tcon cell proliferation (Treg-mediated suppression, flow cytometry; Treg and Tcon cells, mouse; dose not given, 3 d, Treg:Tcon 1:1): 90.7%
C=CC(=O)Nc1ccc(F)c(-c2ncnc3[nH]cc(C(=O)OCC)c23)c1 — mRNA level (qPCR, refers to: cyclin E1; CD4 T-cell blasts, mouse; 15 nM, with: IL-2): inhibited
COc1ccc2c(c1)C(C)(C)C(/C=C/C1=C(Oc3ccc(C(=O)NCCCCOc4cc(CN(Cc5ccccn5)Cc5ccccn5)cc(CN(Cc5ccccn5)Cc5ccccn5)c4)cc3)C(=C/C=C3/N(CCCCS(=O)(=O)[O-])c4ccc(OC)cc4C3(C)C)CCC1)=[N+]2CCCCS(=O)(=O)[O-].O=[N+]([O-])[O-].O=[N+]([O-])[O-].[99Tc+].[C-]#[O+].[C-]#[O+].[C-]#[O+].[Zn+2] — target-to-non-target ratio (BALB/c mouse S. aureus myositis; intravenous, 0.74 MBq/mouse, 12 h; baseline: infected over contralateral muscle): 10.1 ± 1.1
C=CCC1C(=O)C=C(OC)C2(OC)C(C)C(c3ccc4c(c3)OCO4)OC12 (single isomer, unassigned; (-)) — mRNA level (refers to: collagen 1α, α-SMA, TGF-β; mouse, bile duct ligation, liver; dose not given): decreased
CCCc1nc2cc(C(=O)N3CCC4(CC3)CC(=O)c3cc5c(cc3O4)OC(C)(C)CC5)cc(C)c2[nH]1 — liver weight (refers to: liver and liver/body weight ratio; C57BL/6J male mouse, HFD-induced NASH; intragastric, dose not given, daily weeks 10 to 22; baseline: vehicle): decreased
CCOC(=O)Cc1csc(NC(=O)CN2CCN(C)CC2)n1 — inhibition in vivo (paw oedema; mouse; intraperitoneal, 200 µmol/kg): 47.9%
N[C@@H](Cc1ccccc1)C(=O)N1CCC[C@H]1C(=O)NCC(=O)NCC(=O)O — ΔS‡ at 298.15 K (diketopiperazine formation, transition state theory; 1-propanol; 70, 80, 90 °C, 0.5% acetic acid): -36 ± 3 J/(mol·K)
CCNC(=S)NNS(=O)(=O)c1ccc2c(c1)n(C)c(=O)c(=O)n2C — blood glucose (IPGTT; HFD/STZ diabetic male albino mice; 10 mg/kg, 6 h): 86.7 ± 5.49 mg/dL
COc1cc(CN2CCN(c3cccc(Cl)c3)CC2)c2cc3[n+](cc2c1O)CCc1cc2c(cc1-3)OCO2 — FRAP absorbance (ferric reducing power, FRAP; 10 µg/mL, 30 min; higher is greater reducing power): 0.781 ± 1.23 a.u.
O=C(O)CNC(=O)CNC(=O)[C@@H]1CCCN1C(=O)[C@@H]1CCCN1 — enthalpy of activation (diketopiperazine formation, transition state theory; 1-propanol; concentration not given, 70, 80, 90 °C, 0.5% acetic acid): 17.9 ± 0.239 kcal/mol
Cc1cc2c(cc1C1(c3ncc(C(=O)O)cn3)CC1)C(C)(C)CCC2(C)C — log2 fold change (RNA sequencing, refers to: Lyve1; rat, brain; dose not given, 24 h; baseline: vehicle): -0.097
CCCCCCCCCCCCCCCC(=O)NCCCC[C@H](N)C(=O)N[C@@H](CC(=O)O)C(=O)N[C@H](C(=O)N[C@@H](Cc1c[nH]cn1)C(=O)N[C@@H](Cc1ccccc1)C(=O)N[C@@H](CCCNC(=N)N)C(=O)N[C@H](C(=O)N[C@@H](Cc1ccccc1)C(=O)N[C@@H](CCCNC(=N)N)C(=O)N[C@@H](CO)C(=O)N[C@@H](Cc1c[nH]cn1)C(=O)N[C@@H](CO)C(=O)N[C@@H](CC(=O)O)C(=O)N[C@@H](Cc1ccc(O)cc1)C(=O)N[C@@H](CCCNC(=N)N)C(=O)N[C@@H](CCCNC(=N)N)C(=O)N[C@H](C(=O)O)[C@@H](C)CC)[C@@H](C)O)[C@@H](C)O — liver weight (C57BL/6J mouse, MCD diet; intraperitoneal, 0.6 nmol/g, 3 weeks, 3 times weekly): 1.08 ± 0.17 g
O=C1CCN(Cc2ccccc2)CC1C(C[N+](=O)[O-])c1ccccc1 (stereo not shown) — tail flick response (tail immersion test; BALB/c mice; ip, 50 mg/kg, 1.5 h): 58.7%
